Results pooled from the literature.
Compare with care: the assays were run in different laboratories. Several values in a cell are separate wells, animals, samples, runs or records. ± marks the error that the study gave.
ESR2: Estrogen receptor beta (ESR2, Homo sapiens, UniProt Q92731)
Chain of UniProt Q92731 (whole entry, looked up): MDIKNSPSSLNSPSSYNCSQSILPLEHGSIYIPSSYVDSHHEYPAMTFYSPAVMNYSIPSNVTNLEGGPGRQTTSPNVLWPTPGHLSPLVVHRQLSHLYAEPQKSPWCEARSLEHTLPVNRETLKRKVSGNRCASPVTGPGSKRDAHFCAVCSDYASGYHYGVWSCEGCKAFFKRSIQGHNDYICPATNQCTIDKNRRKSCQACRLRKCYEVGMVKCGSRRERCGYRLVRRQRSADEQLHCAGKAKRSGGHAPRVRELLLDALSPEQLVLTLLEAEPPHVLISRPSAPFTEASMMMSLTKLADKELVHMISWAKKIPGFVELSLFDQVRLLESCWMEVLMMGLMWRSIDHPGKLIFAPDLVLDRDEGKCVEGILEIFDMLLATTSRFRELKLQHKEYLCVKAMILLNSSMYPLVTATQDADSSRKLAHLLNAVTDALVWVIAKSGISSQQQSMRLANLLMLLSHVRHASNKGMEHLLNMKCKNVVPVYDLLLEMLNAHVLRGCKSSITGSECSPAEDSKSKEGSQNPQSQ
Chain of UniProt P51575 (whole entry, unmodified, looked up): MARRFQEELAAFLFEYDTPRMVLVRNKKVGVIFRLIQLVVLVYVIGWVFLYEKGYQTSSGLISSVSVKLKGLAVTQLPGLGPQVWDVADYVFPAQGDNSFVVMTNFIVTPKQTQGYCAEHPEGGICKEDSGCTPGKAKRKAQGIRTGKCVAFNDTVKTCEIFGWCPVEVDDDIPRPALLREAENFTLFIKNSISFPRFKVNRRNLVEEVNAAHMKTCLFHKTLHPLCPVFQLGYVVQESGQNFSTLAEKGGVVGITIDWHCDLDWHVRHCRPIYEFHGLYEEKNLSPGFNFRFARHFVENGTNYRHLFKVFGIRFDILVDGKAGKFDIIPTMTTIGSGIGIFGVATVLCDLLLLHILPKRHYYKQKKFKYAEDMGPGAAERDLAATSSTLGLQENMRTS
Chain of UniProt Q7Z569 (whole entry, looked up): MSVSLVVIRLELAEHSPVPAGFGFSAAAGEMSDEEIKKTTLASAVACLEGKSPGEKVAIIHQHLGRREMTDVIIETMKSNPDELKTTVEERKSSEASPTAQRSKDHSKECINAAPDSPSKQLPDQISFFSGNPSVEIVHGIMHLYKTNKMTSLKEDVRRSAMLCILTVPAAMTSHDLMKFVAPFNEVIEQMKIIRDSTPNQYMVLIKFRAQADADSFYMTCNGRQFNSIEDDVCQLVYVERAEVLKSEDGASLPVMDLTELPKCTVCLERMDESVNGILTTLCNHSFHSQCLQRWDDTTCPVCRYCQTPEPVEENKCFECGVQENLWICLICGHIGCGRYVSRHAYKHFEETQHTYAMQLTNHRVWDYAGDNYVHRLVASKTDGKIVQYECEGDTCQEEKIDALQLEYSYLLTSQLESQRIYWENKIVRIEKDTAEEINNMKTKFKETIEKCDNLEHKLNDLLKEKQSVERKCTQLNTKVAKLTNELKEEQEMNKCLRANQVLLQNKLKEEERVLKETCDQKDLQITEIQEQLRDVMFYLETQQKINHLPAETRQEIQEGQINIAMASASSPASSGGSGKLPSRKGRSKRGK
Chain of UniProt Q9NQS5 (whole entry, looked up): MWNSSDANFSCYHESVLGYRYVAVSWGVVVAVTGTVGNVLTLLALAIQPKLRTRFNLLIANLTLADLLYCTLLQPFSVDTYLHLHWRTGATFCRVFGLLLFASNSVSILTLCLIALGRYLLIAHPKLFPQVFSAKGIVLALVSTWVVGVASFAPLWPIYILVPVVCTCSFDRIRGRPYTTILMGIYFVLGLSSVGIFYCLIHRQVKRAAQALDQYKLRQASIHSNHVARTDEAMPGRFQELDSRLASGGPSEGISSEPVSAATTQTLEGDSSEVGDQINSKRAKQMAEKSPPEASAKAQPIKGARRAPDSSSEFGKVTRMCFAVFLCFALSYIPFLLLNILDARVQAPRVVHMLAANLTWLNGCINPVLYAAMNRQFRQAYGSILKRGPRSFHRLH

Compound	tested on	test	test system	conditions	scale	endpoint	value
CCN(CC)C(=O)Nc1ccc(OCC(O)CNC(C)(C)C)c(C(C)=O)c1 (centres unmarked)	Nedd8-cullin1 interaction	neddylation, AlphaScreen		100 µM		inhibition	-12.7%
O=c1cc(NCCCc2ccccc2)[nH]c(=O)[nH]1	G-protein coupled receptor 84 (GPR84, Homo sapiens, UniProt Q9NQS5)	cAMP level, agonist	human cells			EC50	1730 ± 600 nM
Cc1cc(Nc2cc3ncccc3c(N[C@@H]3C[C@H]4CC[C@@H](C3)N4CCC#N)n2)n[nH]1			human, plasma	80 mg, day 1, geometric mean		AUC(0-4)	3.33 ng·h/mL
Cc1c(-c2ccc(N3CCc4cccc(C(=O)Nc5nc6ccccc6s5)c4C3)nc2C(=O)O)cnn1CC12CC3(C)CC(C)(C1)CC(OCCNCC[C@H](O)CO)(C3)C2			beagle dog, male, anaesthetised	intravenous infusion, 0.3 mg/kg/min, 45 min	relative to: vehicle	mean arterial pressure change	-24%
Nc1ncnc2c1ncn2[C@@H]1O[C@H](COP(=O)(O)CP(=O)(O)OP(=O)(O)O)[C@@H](O)[C@H]1O	P2X purinoceptor 1 (P2RX1, Homo sapiens, UniProt P51575, R139A)	saturation binding	HEK293	13 nM		specific binding	814 CCPM and 608 CCPM
COc1cc([C@@H]2Oc3ccc([C@H]4Oc5cc(O)cc(O)c5C(=O)[C@@H]4O)cc3O[C@H]2CO)ccc1O			FVB wild-type mice, plasma	oral gavage, 500 mg/kg silymarin, geometric mean		AUC(0-4h)	0.14 µM·h
CC1=C(Cn2cc(CN)nn2)C(=O)c2ccccc2C1=O	Schistosoma mansoni		adult worms	25 µM, 24 h		killing	50.4%
COc1ccc2c(c1)CN(C(=O)CCN1CCC(Cc3ccccc3)CC1)CC[S@@+]2[O-]		telemetry	conscious male beagle dogs	intravenous, 8 mg/kg, 0.5 h		QTc interval	242 ± 27 ms
Cn1cc([C@H]2C[C@H]3CSC(N)=N[C@@]3(c3ccc(F)cc3F)CO2)cn1			male 129/SVE mouse, brain	subcutaneous, 10 mg/kg, 6 h		brain concentration	512 nM
Nc1ncnc2c1ncn2[C@H]1C[C@@H]2OP(=O)(O)OC[C@H]3O[C@@H](n4cnc5c(N)ncnc54)C[C@@H]3OP(=O)(O)OC[C@H]2O1			non-tumor-bearing mice, blood	intravenous, 1 mg/kg, toxicity study		plateletcrit	0.11 ± 0.09%
CC(C)C[C@H](NC(=O)C[C@H](O)[C@H](CC(C)C)NC(=O)[C@H](Cc1c[nH]cn1)NC(=O)CNC(=O)[C@@H](NC(=O)[C@H](C)NC(=O)[C@H](Cc1c[nH]c2ccccc12)NC(=O)[C@H](CCC(N)=O)NC(=O)[C@@H](Cc1ccccc1)NC(=O)COCCOCCNC(=O)CCC(C(=O)O)N1CCN(CC(=O)O)CCN(CC(=O)O)CCN(CC(=O)O)CC1)C(C)C)C(N)=O (some centres unmarked) [lutetium-177 labelled]			female BALB/c nu/nu mice, stomach	intravenous, 50 pmol, 1 h		tissue uptake	2 ± 1 %ID/g
N[C@@H](CC(=O)N1CCc2c(nc(C(F)(F)F)nc2C(F)(F)F)C1)CN1CC(F)(F)CCC1=O			healthy Korean adults, fasted, plasma	oral, 50 mg single dose, separate tablets, added: enavogliflozin 0.3 mg		apparent clearance CL/F	37200 ± 7200 mL/h
CCCCC[C@H](O)CC[C@@H]1[C@H]2Cc3cccc(OCC(=O)O)c3C[C@H]2C[C@H]1O		LC-MS/MS	Japanese IPAH/HPAH patients, plasma	inhaled, 54 µg		geometric mean Cmax	0.93 ng/mL
C=CC(=O)Nc1cc(Nc2nccc(-c3cn(C)c4ccccc34)n2)c(OC)cc1N(C)CCN(C)C		item: maculopapular rash	EGFR-mutant MET-altered NSCLC patients	oral, dose not given, AE grade ≥3, all		incidence of treatment-related AEs	1%
CC(C)=CCc1c(O)ccc(C(=O)/C=C/c2ccc(O)cc2)c1O	ESR2	array formation, agonist	GFP-ERβ PRL-HeLa	1 h		EC50	174 nM
O=C(O)COc1cnc2ccccc2n1	BRCA1-associated protein, ZnF-UBD domain (BRAP, Homo sapiens, UniProt Q7Z569)					Kd	885000 nM
O=C(OC(C(F)(F)F)C(F)(F)F)N1CCN(Cc2cccc(Oc3ccccc3)c2)CC1		PET blocking study	rhesus monkey, brain Pons	0.03 mg/kg, compound pretreatment, added: [18F]T-401 tracer		k2	0.075 min⁻¹
CNCc1ccc(-c2[nH]c3cc(F)cc4c3c2CCNC4=O)cc1			human patients	oral, 840 mg twice daily, all grades		nausea incidence	100%
Cc1ccc(Sc2ccccc2N2CCNCC2)c(C)c1		TEAE blood in urine	healthy adult men	oral, 40 mg single dose, 10 days		adverse event incidence	0%
Cc1ccc([C@@H]2O[C@H](CO)[C@@H](O)[C@H](O)[C@H]2O)cc1Cc1ccc(-c2ccc(F)cc2)s1		item: inorganic phosphorus	Japanese type 2 diabetes patients	100 mg, day 3, 24 h urine collection	relative to: baseline	urinary phosphate excretion change	-123 mg
Cn1cc(Nc2nccc(-c3ccc4c(c3)CN(C3COC3)CC[C@H]4NC(=O)c3cn(C(C)(C)C)nn3)n2)cn1			human, whole blood	150 mg twice daily, day 14	relative to: pre-dose baseline	CD4+ T cell count change	0.6%
C1=C/COCc2cc(ccc2OCCN2CCCC2)Nc2nccc(n2)-c2cccc(c2)COC/1			rat plasma	2 ng/mL, 1 months, -20 °C, long-term storage	relative to: nominal concentration	stability relative error	-3.39%
CCOc1c([C@H](C)n2nc(C)c3c(N)ncnc32)cc(Cl)c(F)c1[C@@H]1CNC(=O)C1		item: QTcF change above 60 ms	previously treated B-cell malignancy	oral, 20 mg once daily, baseline QTcF ≤450 ms	relative to: baseline	ECG observations	1.2%
C=CC(=O)Nc1cc(Nc2nccc(-c3cn(C)c4ccccc34)n2)c(OC)cc1N(C)CCN(C)C		storage stability	human dried blood spots	24 h, -80 °C, low QC level		recovery	98.2%
COc1cc(C2Oc3cc([C@H]4Oc5cc(O)cc(O)c5C(=O)[C@@H]4O)ccc3OC2CO)ccc1O (some centres unmarked)	ESR2	array formation, agonist	GFP-ERβ PRL-HeLa	1 h		EC50	3920 nM
COc1nc(C)nc(Cl)c1NC1=NCCN1	Nedd8-cullin1 interaction	neddylation, AlphaScreen		100 µM		inhibition	15.2%
CC1(CNC(=O)c2ccc(C#CC#Cc3ccccc3)cc2)NC(=O)NC1=O (centres unmarked)			aqueous buffer	pH 7.4		thermodynamic solubility	< 7.14 µM
CCCCOc1ccc([C@H]2CC[C@H](CCC)CC2)c(F)c1F			rat, fetus	10 ng/mL in perfusate, low dose, mixture of 21 LCMs		median fetal accumulation	0.615 ng/g
CCn1c(=O)c(-c2cc(NC(=O)Nc3ccccc3)c(F)cc2Br)cc2cnc(NC)cc21		item: amylase increased	human, severe hepatic impairment	oral, 50 mg single dose		participants with grade ≥ 3 TEAE	0%

For quick reference, copied from above:
Compound	tested on	test	test system	conditions	scale	endpoint	value
Cn1cc(Nc2nccc(-c3ccc4c(c3)CN(C3COC3)CC[C@H]4NC(=O)c3cn(C(C)(C)C)nn3)n2)cn1			human, whole blood	150 mg twice daily, day 14	relative to: pre-dose baseline	CD4+ T cell count change	0.6%
COc1nc(C)nc(Cl)c1NC1=NCCN1	Nedd8-cullin1 interaction	neddylation, AlphaScreen		100 µM		inhibition	15.2%
Cc1cc(Nc2cc3ncccc3c(N[C@@H]3C[C@H]4CC[C@@H](C3)N4CCC#N)n2)n[nH]1			human, plasma	80 mg, day 1, geometric mean		AUC(0-4)	3.33 ng·h/mL
COc1ccc2c(c1)CN(C(=O)CCN1CCC(Cc3ccccc3)CC1)CC[S@@+]2[O-]		telemetry	conscious male beagle dogs	intravenous, 8 mg/kg, 0.5 h		QTc interval	242 ± 27 ms
